Assay results from different studies.
Each numbered part is a random draw from the data of one study; scales do not carry over between parts.

Block 1 — technique: protein binding microarray; molecule type: double-stranded DNA, one strand shown; sample: in vitro; concentration: not given; baseline: not given; direction: higher = stronger binding
Target: Histone acetyltransferase KAT6A, winged helix 2, GST fusion (KAT6A, Homo sapiens, UniProt Q92794, residues 85-181)
Setting: 8-mer, flanks averaged, mean of 2 arrays, mostly near background
Residues (chain): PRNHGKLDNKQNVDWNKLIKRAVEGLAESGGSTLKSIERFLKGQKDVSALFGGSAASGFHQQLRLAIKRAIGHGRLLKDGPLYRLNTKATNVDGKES
| Sequence | E-score |
| --- | --- |
| CGTTAAGC | 0.0001 |
| AGTGACGC | 0.0794 |
| CATATTGC | -0.211 |
| CGTTAAAA | -0.096 |
| ATCTCTCA | -0.043 |
| CAAATACA | -0.165 |

Block 2 — technique: protein-binding microarray; molecule type: double-stranded DNA, one strand shown; sample: in vitro; concentration: 250 nM; setting: 60-bp whole probe; with: salmon DNA 0.4 mg/ml; baseline: random background probes; direction: higher = stronger binding
Target: Interferon regulatory factor 5, full length, phosphomimetic (IRF5, Homo sapiens, UniProt Q13568-2, residues 1-514, K96S/S451D/S453D/S456D/S462D)
Constant ends, left off below: GCCTAGCAC … GTGCTAGGTCTTGATTCGCTTGACGCTGCTG
| Sequence | log fluorescence [z-score] |
| --- | --- |
| TCTAATTTACTTTGGTTGGC | 0.433 |
| TTAGGTTTCCTTTCACTTTA | 5.61 |
| TTAGGTTTCCTACTGATTTA | 0.519 |
| TCACGTATCTTCATTGTACT | 0.511 |
| GACGATATCAGTCTCGAGAC | 1.32 |
| GACGGACTGGCACTGGGGAC | -0.742 |

Block 3 — technique: aptamer microarray, sandwich; molecule type: DNA with 2'F-ANA; sample: in vitro; concentration: 200 nM; with: Cy3 exosite-II aptamer, 400 nM; direction: higher = stronger binding; sequence: GGTTGGTGTGGTTGG
Target: Prothrombin, mature alpha-thrombin (F2, Homo sapiens, UniProt P00734)
Setting: whole 15-mer aptamer, many near background
| Modification | mean fluorescence intensity [a.u.] |
| --- | --- |
| 2'F-ANA at 1 2 4 5 6 8 9 11 13 | 186 |
| 2'F-ANA at 3 4 5 6 7 8 9 11 12 13 14 15 | 57.5 |
| 2'F-ANA at 2 5 9 10 11 12 15 | 49.6 |
| 2'F-ANA at 1 2 4 5 7 11 12 13 14 15 | 47.4 |
| 2'F-ANA at 2 3 4 6 7 8 9 10 12 | 305 |
| 2'F-ANA at 1 4 6 8 9 10 12 13 15 | 54 |
| 2'F-ANA at 1 3 4 5 6 7 8 9 11 12 13 14 | 44.6 |
| 2'F-ANA at 1 4 5 8 9 10 11 12 13 14 15 | 158 |

Other studies, line by line
| Molecule | target | test | test system | conditions | how to read | quantity | result |
| --- | --- | --- | --- | --- | --- | --- | --- |
| PhoQ, residues 284 288 289 292 302 303 SVTLVV | PhoP, residues 12 14 15 18 19 LQHIR (Escherichia coli, UniProt P23836) | Sort-seq, item: YFP reporter | E. coli | PhoQ-PhoP variant library, with: 10 µM Mg2+ | baseline: high Mg2+ state, higher = stronger signaling | fold induction | 6.02 |

For quick reference, copied from above (block 3):
| Modification | mean fluorescence intensity [a.u.] |
| --- | --- |
| 2'F-ANA at 1 4 6 8 9 10 12 13 15 | 54 |
| 2'F-ANA at 1 4 5 8 9 10 11 12 13 14 15 | 158 |
| 2'F-ANA at 1 3 4 5 6 7 8 9 11 12 13 14 | 44.6 |
